Published values gathered from unrelated publications.
EGFR del746-750: Epidermal growth factor receptor (EGFR, Homo sapiens, UniProt P00533, del746-750)
EGFR L858R: Epidermal growth factor receptor (EGFR, Homo sapiens, UniProt P00533, L858R)

O=C(NC1CCC1)c1ccc2nc(-c3cccc(NS(=O)(=O)NCCN4CCCCC4)c3)cn2c1
remaining activity (EGFR del746-750; enzyme activity; 10 µM): 80%

COc1cc(N2CCN(C)CC2)ccc1Nc1nc(N)n(C(=S)NCc2c(Cl)cccc2Cl)n1
remaining activity (EGFR (Homo sapiens, UniProt P00533, del747-752/P753S); enzyme activity; 10 µM; baseline: control): 2.6%

C=CC(=O)N1CCC(C(=O)NCC(=O)N2CCN(c3nc(-c4cnc(N)nc4C(F)F)nc(N4CCOCC4)n3)CC2)CC1
remaining binding (EGFR (Homo sapiens, UniProt P00533, L858R/T790M); KINOMEscan; 1 µM): 97%

[2H]c1cc(C)c(NC(=O)c2cnc(Nc3cc(N4CCCCC4)nc(C)n3)s2)c(Cl)c1
inhibition (EGFR (Homo sapiens, UniProt P00533, L861Q); 0.01 µM): < 30%

COc1cc(N2CCN(C)CC2)ccc1Nc1nc(N)n(C(=O)NCc2c(Cl)cccc2Cl)n1
remaining activity (EGFR L858R; enzyme activity; 10 µM; baseline: control): 7.4%

C=CC(=O)N1CCC(COCC(=O)N2CCN(c3nc(-c4cnc(N)nc4C(F)F)nc(N4CCOC[C@@H]4C)n3)CC2)CC1
remaining binding (EGFR (Homo sapiens, UniProt P00533); KINOMEscan; 1 µM; baseline: DMSO control): 89%

CC(C)Cc1ccc(-c2nn(-c3ccc(S(C)(=O)=O)cc3)cc2/C=N/N=c2\[nH]c(-c3ccc([N+](=O)[O-])cc3)cs2)cc1
inhibition (EGFR L858R; kinase activity, inhibitor; 10 µM): 88%

CCOc1cc(N2CCN(C)CC2)ccc1Nc1nc(N)n(C(=O)NCc2ccccc2S(=O)(=O)C(C)C)n1
remaining activity (EGFR (Homo sapiens, UniProt P00533, G719C); enzyme activity; 10 µM; baseline: control): 0.6%

C[C@@H](c1ccc(-n2cnc3c(N)ncnc32)cc1)N1CCc2nn(C)c(Cc3ccccc3)c2C1=O
remaining binding (EGFR L858R; KINOMEscan; 0.1 µM; baseline: DMSO control): 81%

COc1ccc(-c2nn(-c3ccc(S(C)(=O)=O)cc3)cc2/C=N/N=c2\[nH]c(-c3ccc(Br)cc3)cs2)cc1
inhibition (EGFR L858R; kinase activity, inhibitor; 10 µM): 89%

COc1cc(N2CCN(C)CC2)ccc1Nc1nc(N)n(C(=O)NCc2ccccc2S(=O)(=O)C(C)C)n1
remaining activity (EGFR del746-750; enzyme activity; 10 µM; baseline: control): 14%

CC(C)C[C@H](NC(=O)[C@H](CO)NC(=O)[C@H](CO)NC(=O)CNC(=O)[C@@H]1CCCN1C(=O)[C@H](Cc1ccc(O)cc1)NC(=O)[C@H](CC(C)C)NC(=O)[C@H](CO)NC(=O)[C@H](CS)NC(=O)[C@H](CC(C)C)NC(=O)[C@@H](N)CC(C)C)C(=O)O
kon (Epidermal growth factor receptor, extracellular domain (EGFR, Homo sapiens, UniProt P00533); binding, first site, surface plasmon resonance; immobilised soluble EGFR; model, binding, one to two): 171 M⁻¹ s⁻¹

COc1ccc(-c2nn(-c3ccc(S(C)(=O)=O)cc3)cc2C=N/N=c2\[nH]c(-c3ccc([N+](=O)[O-])cc3)cs2)cc1
inhibition (EGFR L858R; kinase activity, inhibitor; 0.01 µM): 35.3%
